Measurements gathered from unrelated publications.
Each numbered part is a random draw from the data of one study; scales do not carry over between parts. Changes are numbered by the printed parent chain.

Sample 1 — target: CCNB3, cyclin fold, Cln2 fusion (human); technique: yeast growth competition, sequencing; medium: yeast; setting: strong parent motif; reference: not given; reading: higher = stronger binding; starting sequence: viral docking peptide; TSVRRALFTGGSD
| Variant | normalised enrichment score |
| --- | --- |
| D13A | 1.4 |
| L7W | 0.313 |
| F8C | -0.075 |
| L7K | 0.258 |
| F8T | -0.176 |
| G11W | 1.03 |
| V3R | 0.564 |
| L7R | 0.251 |
| S2W | 0.89 |
| A6G | 1.35 |
| R4N | 0.328 |
| A6D | 0.826 |
| T9D | 1.5 |
| L7I | 0.329 |
| G10L | 1.55 |
| A6E | 0.449 |
| T9R | 1.35 |

Sample 2 — target: inorganic phosphate, free oxyanion; technique: microfluidic competitive inhibition; medium: in vitro, cell-free expressed; concentration: not given; reading: lower = stronger binding
Setting: derived from inhibition constants, unchanged parent 615000 nM
Starting sequence: PafA, mature enzyme, eGFP fusion (Elizabethkingia meningoseptica, UniProt Q9KJX5); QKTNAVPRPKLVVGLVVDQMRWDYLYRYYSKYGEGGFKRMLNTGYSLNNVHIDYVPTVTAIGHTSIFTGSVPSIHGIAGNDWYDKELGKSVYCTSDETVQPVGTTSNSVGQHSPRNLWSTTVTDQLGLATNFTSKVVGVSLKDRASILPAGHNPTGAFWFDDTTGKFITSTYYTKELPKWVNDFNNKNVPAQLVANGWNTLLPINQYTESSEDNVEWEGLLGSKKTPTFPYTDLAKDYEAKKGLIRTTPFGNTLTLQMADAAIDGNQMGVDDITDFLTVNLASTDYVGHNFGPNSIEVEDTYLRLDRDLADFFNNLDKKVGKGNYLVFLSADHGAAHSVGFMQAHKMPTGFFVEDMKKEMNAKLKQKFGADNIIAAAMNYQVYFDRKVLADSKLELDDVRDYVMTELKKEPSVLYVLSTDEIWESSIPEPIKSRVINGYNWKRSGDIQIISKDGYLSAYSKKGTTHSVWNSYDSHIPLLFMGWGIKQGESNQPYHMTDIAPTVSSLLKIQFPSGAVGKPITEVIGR
| Variant | phosphate dissociation constant |
| --- | --- |
| T502V | 347 µM |
| T105G | 555 µM |
| L47V | 601 µM |
| A500V | 628 µM |
| N266V | 657 µM |
| K319V | 591 µM |

Sample 3 — technique: protein-binding microarray; molecule type: double-stranded DNA, one strand shown; medium: in vitro; concentration: 940 nM top; setting: 60-bp whole probe; added: salmon DNA 0.4 mg/ml; reference: random background probes; reading: higher = stronger binding; shared flanks, not repeated: GCCTAGCAC … GTCTTGATTCGCTTGACGCTGCTG
Target: Interferon regulatory factor 5, full length, phosphomimetic (IRF5, Homo sapiens, UniProt Q13568-2, residues 1-514, S451D/S453D/S456D/S462D)
| Sequence | fitted relative affinity [z-score] |
| --- | --- |
| TCAAGTTTGTAAATCTTACTGTGCTAG | -0.403 |
| GACGGTATCGGTCTCGGGACGTGCTAG | 8.06 |
| TGAGATTTCCATTATTGCTTGTGCTAG | 0.353 |
| TTAGAATTGGGGTATCGATTAGTGCTA | 3 |
| GACGAACTGAGGACTGGAGACGTGCTA | -0.448 |
| GTGACTCTGAACCTTGGGCTGTGCTAG | -0.494 |
| TTAGATTTGGGGTTTCGATTAGTGCTA | 5.96 |
| TTAGTACTGGGTTTCGGTTAGTGCTAG | 6.87 |

Sample 4 — target: CREB3L4, bZIP domain (human); technique: DHFR protein complementation; medium: yeast; reference: wild-type JUN-FOS pair; reading: higher = stronger binding
Setting: single substitutions, most at no-binding floor
Starting sequence: JUN, bZIP domain (human); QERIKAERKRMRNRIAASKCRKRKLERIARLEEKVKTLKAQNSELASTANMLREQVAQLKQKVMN; partner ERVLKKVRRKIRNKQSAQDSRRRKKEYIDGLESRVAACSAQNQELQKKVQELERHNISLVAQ
| Variant | binding fitness |
| --- | --- |
| V35I | -1.54 natural log |
| T48L | -1.45 natural log |
| Q41S | -1.48 natural log |
| I28H | -1.52 natural log |
| M51D | -1.45 natural log |
| Q55V | -1.38 natural log |
| E32L | -1.2 natural log |
| A49F | -1.52 natural log |

For quick reference, copied from above (sample 1):
| Variant | normalised enrichment score |
| --- | --- |
| F8C | -0.075 |
| A6G | 1.35 |
| A6D | 0.826 |
| F8T | -0.176 |
| L7W | 0.313 |
| R4N | 0.328 |
